Assay results of several laboratories.
Each numbered part is a random draw from the data of one study; scales do not carry over between parts. Values joined by “and” are separate records of one study, mostly repeats; a detail may differ.
UniProt P07949, sequence (whole entry, unmodified, looked up): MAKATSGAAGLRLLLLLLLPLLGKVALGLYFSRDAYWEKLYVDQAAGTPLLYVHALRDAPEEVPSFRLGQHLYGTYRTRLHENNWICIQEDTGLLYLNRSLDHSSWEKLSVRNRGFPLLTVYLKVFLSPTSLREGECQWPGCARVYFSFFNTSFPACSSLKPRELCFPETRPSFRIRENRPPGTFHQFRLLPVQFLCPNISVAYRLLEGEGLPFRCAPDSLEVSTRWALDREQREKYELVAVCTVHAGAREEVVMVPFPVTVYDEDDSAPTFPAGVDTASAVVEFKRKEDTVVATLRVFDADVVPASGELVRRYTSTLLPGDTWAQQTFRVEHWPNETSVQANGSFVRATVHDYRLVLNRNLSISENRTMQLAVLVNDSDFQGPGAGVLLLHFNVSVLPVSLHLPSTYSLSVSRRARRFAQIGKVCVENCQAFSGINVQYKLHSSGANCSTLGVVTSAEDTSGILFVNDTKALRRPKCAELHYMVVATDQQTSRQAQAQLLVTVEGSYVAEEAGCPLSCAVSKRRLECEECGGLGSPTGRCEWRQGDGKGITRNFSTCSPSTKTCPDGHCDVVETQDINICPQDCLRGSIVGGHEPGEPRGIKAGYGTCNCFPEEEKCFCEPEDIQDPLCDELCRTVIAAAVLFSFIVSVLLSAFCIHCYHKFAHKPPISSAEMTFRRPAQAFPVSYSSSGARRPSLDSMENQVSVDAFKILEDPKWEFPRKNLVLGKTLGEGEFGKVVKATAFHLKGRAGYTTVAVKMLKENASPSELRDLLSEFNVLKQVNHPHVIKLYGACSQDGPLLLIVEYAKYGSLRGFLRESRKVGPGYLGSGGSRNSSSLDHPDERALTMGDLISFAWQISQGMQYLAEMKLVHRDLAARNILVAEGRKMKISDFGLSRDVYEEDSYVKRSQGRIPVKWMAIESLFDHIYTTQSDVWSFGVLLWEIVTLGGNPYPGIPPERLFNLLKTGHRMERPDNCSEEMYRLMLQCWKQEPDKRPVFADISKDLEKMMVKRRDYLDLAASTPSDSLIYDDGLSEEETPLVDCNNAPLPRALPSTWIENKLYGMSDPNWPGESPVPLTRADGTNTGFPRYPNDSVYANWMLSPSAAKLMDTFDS
UniProt P0C264, sequence (whole entry, looked up): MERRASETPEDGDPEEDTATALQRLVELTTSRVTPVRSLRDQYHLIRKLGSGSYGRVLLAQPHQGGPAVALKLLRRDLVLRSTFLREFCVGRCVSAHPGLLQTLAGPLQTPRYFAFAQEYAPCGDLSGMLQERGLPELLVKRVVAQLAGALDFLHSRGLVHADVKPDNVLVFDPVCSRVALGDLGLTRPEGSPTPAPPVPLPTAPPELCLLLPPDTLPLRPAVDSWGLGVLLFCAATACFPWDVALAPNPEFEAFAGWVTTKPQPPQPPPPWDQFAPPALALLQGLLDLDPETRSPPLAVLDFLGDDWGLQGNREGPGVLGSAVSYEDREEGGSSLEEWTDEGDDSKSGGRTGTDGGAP
UniProt P51681, sequence (whole entry, looked up): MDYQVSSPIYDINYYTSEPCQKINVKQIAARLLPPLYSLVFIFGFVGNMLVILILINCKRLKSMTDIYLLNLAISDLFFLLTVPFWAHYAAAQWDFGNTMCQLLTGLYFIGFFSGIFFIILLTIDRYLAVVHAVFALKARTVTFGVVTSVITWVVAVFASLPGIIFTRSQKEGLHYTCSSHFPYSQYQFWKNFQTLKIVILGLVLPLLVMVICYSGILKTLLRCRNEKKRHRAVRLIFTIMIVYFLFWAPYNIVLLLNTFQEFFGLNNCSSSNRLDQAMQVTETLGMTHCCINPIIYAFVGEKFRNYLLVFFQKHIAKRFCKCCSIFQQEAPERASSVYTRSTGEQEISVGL
UniProt P49840, sequence (whole entry, looked up): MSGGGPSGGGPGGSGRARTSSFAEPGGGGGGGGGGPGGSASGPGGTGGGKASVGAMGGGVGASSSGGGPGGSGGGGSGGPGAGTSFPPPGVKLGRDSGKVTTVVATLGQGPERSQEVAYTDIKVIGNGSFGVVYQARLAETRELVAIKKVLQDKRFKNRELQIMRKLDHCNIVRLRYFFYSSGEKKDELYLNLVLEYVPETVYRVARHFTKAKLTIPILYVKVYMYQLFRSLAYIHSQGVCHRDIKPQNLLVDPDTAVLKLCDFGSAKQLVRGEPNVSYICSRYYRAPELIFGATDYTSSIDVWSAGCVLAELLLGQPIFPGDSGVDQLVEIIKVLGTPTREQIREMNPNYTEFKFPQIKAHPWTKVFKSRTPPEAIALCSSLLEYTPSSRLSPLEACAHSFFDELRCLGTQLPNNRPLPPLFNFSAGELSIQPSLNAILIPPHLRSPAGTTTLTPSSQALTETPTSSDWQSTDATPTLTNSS
UniProt Q15761, sequence (whole entry, looked up): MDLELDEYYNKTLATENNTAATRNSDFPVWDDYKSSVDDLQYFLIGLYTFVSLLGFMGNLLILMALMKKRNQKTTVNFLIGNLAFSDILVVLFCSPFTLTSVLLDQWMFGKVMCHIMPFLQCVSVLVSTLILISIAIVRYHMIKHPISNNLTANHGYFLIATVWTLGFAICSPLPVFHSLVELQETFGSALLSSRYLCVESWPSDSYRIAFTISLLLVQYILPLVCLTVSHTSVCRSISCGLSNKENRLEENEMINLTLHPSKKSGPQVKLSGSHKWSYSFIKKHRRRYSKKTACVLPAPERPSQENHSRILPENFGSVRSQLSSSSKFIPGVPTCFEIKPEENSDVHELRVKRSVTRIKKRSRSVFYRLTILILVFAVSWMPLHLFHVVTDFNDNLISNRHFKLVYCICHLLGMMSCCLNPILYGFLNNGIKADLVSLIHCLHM

Set 1
Structure (SMILES): NC(N)=NC(=O)c1nc(Cl)c(N2CCCCCC2)nc1N
Action: agonist
Tested at: 10 µM
Relative to: untreated
target | assay | fold over basal
ADRB1 (Homo sapiens, UniProt P08588) | β-arrestin recruitment, PRESTO-Tango | 1.07
MC4R (Homo sapiens, UniProt P32245) | β-arrestin recruitment, PRESTO-Tango | 1.7
CCR5 (Homo sapiens, UniProt P51681) | β-arrestin recruitment, PRESTO-Tango | 0.91
NPY5R (Homo sapiens, UniProt Q15761) | PRESTO-Tango arrestin recruitment | 11.9
Secretin receptor (SCTR, Homo sapiens, UniProt P47872) | β-arrestin recruitment, PRESTO-Tango | 0.72
Probable G-protein coupled receptor 45 (GPR45, Homo sapiens, UniProt Q9Y5Y3) | β-arrestin recruitment, PRESTO-Tango | 0.72

Set 2
Organism: Sarcocystis neurona
Read-out: parasite growth
Tested at: 10 µM
Time: 96 h
Relative to: untreated
Structure (SMILES) | log2 fold change
CC(C)(O)c1ccccc1CC[C@@H](SCC1(CC(=O)O)CC1)c1cccc(/C=C/c2ccc3ccc(Cl)cc3n2)c1 | 0.38
CC(C)n1c(/C=C/C(O)CC(O)CC(=O)O)c(-c2ccc(F)cc2)c2ccccc21 (stereo not shown) | 0.26
CC(C)c1nc(CN(C)C(=O)N[C@H](C(=O)N[C@@H](Cc2ccccc2)C[C@H](O)[C@H](Cc2ccccc2)NC(=O)OCc2cncs2)C(C)C)cs1 | -0.56
OCCN1CCN(CCCN2c3ccccc3Sc3ccc(C(F)(F)F)cc32)CC1 | -3.12
COC1=C(OC)C(=O)C(CCCCCCCCCCO)=C(C)C1=O | 0.33
CC(C)NCC(O)COc1ccc(CC(N)=O)cc1 (stereo not shown) | -0.62
CC(C(=O)O)c1ccc(-c2ccccc2)c(F)c1 (stereo not shown) | -0.07

Set 3
Structure (SMILES): O=c1nc(-c2ccccn2)sc2ccccc12
Method: competition with immobilised ligand
Tested at: 1 µM
target | assay | remaining binding [%]
SBK3 (Homo sapiens, UniProt P0C264) | binding | 100
RET (Homo sapiens, UniProt P07949, M918T) | binding | 81
YES1 (Homo sapiens, UniProt P07947) | binding | 100
RET (Homo sapiens, UniProt P07949) | binding | 89
Receptor-type tyrosine-protein kinase FLT3, autoinhibited (FLT3, Homo sapiens, UniProt P36888) | binding | 98
PIK3CA (Homo sapiens, UniProt P42336, H1047L) | cell-free assay | 76
IRAK4 (Homo sapiens, UniProt Q9NWZ3) | binding | 100
BTK (Homo sapiens, UniProt Q06187) | binding | 96
BMPR1A (Homo sapiens, UniProt P36894) | binding | 100
STK17B (Homo sapiens, UniProt O94768) | cell-free assay | 80
GSK3A (Homo sapiens, UniProt P49840) | cell-free assay | 82
CDK11B (Homo sapiens, UniProt P21127) | cell-free assay | 100
SIK3 (Homo sapiens, UniProt Q9Y2K2) | binding | 85
MAK (Homo sapiens, UniProt P20794) | binding | 89
NEK1 (Homo sapiens, UniProt Q96PY6) | binding | 100
IRAK3 (Homo sapiens, UniProt Q9Y616) | binding | 82
INSRR (Homo sapiens, UniProt P14616) | binding | 86
STK32B (Homo sapiens, UniProt Q9NY57) | binding | 100
MAP2K1 (Homo sapiens, UniProt Q02750) | binding | 100
ZAP70 (Homo sapiens, UniProt P43403) | binding | 100
HUNK (Homo sapiens, UniProt P57058) | binding | 81
GRK1 (Homo sapiens, UniProt Q15835) | binding | 76
CDK16 (Homo sapiens, UniProt Q00536) | binding | 100
Mast/stem cell growth factor receptor Kit, autoinhibited (KIT, Homo sapiens, UniProt P10721) | binding | 97
EPHB6 (Homo sapiens, UniProt O15197) | cell-free assay | 61

Set 4
Target: Calcium/calmodulin-dependent protein kinase type II subunit alpha (CAMK2A, Homo sapiens, UniProt Q9UQM7)
UniProt Q9UQM7, sequence (whole entry, looked up): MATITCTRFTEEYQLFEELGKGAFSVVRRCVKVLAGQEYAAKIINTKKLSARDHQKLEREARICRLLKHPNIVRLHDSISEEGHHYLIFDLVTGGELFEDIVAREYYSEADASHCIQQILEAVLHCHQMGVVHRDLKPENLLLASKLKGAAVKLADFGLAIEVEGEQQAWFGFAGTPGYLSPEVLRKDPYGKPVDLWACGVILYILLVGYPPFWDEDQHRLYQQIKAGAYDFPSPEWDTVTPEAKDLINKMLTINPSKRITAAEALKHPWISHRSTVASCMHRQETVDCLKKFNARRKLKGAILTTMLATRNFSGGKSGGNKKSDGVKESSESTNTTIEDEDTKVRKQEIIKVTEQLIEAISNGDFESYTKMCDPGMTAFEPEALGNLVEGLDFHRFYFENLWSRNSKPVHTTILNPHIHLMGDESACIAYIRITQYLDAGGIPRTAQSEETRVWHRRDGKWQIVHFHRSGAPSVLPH
Read-out: enzyme activity
Action: inhibitor
Tested at: 10 µM
SMILES | inhibition
COc1cc(OC)c2c(=O)cc(-c3cc(OC)c(OC)c(OC)c3)oc2c1 | 7%
Oc1ccc(C2COc3cc(O)ccc3C2)cc1 (racemic) | -11%
Cc1ncc(CO)c(C(=O)O)c1O | 3%
CC(=O)O[C@]1(C(C)=O)CC[C@H]2[C@@H]3C=C(Cl)C4=CC(=O)CC[C@]4(C)[C@H]3CC[C@@]21C | -6%
CC(C)[C@H](N)C(=O)OCCOCn1cnc2c(=O)[nH]c(N)nc21 | -4%
NCC[C@H](O)C(=O)N[C@@H]1C[C@H](N)[C@@H](O[C@H]2O[C@H](CN)[C@@H](O)[C@H](O)[C@H]2O)[C@H](O)[C@H]1O[C@H]1O[C@H](CO)[C@@H](O)[C@H](N)[C@H]1O | -5%
COc1cc(/C=C/CO)ccc1O[C@@H]1O[C@H](CO)[C@@H](O)[C@H](O)[C@H]1O | 6%
C=C1[C@H](OC(=O)/C=C(\C)CC)C[C@@H](C(C)C)[C@@H]2[C@@H]([C@@H](C)OC(C)=O)C(=O)C[C@@H]12 | -9%
C[n+]1c2n(c(=O)c3ccccc31)CCc1c-2[nH]c2ccccc12 | -7%

Set 5
Compound: O=C1CCC(N2Cc3cc(C4CCN(Cc5ccccc5)CC4)ccc3C2=O)C(=O)N1 (stereo not shown)
Action: degrader
Method: HiBiT
Cell line: HEK293
SALL4: Sal-like protein 4 (SALL4, Homo sapiens, UniProt Q9UJQ4)
UniProt Q9UJQ4, sequence (whole entry, looked up): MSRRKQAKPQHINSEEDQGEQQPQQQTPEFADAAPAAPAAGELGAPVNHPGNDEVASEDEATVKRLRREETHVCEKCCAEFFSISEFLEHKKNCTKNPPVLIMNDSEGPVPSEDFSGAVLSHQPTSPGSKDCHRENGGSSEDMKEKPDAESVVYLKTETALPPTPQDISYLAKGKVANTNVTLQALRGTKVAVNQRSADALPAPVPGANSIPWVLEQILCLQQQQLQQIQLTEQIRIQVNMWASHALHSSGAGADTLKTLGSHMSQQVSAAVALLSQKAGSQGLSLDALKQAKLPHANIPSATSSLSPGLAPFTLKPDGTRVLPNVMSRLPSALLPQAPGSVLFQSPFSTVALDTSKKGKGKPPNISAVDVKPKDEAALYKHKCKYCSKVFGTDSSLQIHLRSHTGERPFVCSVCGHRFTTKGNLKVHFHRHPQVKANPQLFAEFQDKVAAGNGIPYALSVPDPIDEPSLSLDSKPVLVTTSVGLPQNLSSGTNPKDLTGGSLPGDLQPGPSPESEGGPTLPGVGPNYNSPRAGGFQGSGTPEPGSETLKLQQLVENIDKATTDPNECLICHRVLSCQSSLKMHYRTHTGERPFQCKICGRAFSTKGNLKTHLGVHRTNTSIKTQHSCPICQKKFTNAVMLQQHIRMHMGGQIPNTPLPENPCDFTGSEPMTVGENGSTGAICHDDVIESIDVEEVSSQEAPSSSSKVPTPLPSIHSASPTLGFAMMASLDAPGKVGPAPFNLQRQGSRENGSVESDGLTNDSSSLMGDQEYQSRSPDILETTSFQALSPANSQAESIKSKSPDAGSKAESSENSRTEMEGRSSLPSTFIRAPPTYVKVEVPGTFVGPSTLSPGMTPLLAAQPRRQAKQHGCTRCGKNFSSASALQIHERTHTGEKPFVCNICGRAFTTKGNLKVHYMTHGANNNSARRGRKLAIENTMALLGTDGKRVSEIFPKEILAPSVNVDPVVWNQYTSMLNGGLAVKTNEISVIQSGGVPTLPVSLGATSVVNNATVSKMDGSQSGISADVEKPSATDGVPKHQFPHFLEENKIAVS
Zinc finger protein Aiolos: Zinc finger protein Aiolos (Homo sapiens, UniProt Q9UKT9)
UniProt Q9UKT9, sequence (whole entry, looked up): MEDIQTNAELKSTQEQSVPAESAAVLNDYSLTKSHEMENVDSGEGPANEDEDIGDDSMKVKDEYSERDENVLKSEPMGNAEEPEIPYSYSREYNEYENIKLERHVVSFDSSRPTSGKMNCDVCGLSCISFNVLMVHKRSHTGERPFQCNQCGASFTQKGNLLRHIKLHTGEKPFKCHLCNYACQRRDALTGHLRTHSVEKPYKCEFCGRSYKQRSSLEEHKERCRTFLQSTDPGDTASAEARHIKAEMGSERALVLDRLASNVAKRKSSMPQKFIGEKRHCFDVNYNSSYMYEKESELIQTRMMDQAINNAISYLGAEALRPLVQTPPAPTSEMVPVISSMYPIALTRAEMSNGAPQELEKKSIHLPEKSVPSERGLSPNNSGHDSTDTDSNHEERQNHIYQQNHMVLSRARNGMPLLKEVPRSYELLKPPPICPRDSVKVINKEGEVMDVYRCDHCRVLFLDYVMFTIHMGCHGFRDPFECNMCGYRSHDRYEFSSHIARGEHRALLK
target | setting | remaining protein
SALL4 | 0.001524 µM, 6 h | 70%
SALL4 | 10 µM, 6 h | 46.2%
SALL4 | 0.0005081 µM, 6 h | 77.9%
Zinc finger protein Aiolos | 0.3704 µM | 82.5% and 84.3%
Zinc finger protein Aiolos | 0.004572 µM, 6 h | 83.8%

Excerpt of the above (set 3):
target | assay | remaining binding [%]
Receptor-type tyrosine-protein kinase FLT3, autoinhibited (FLT3, Homo sapiens, UniProt P36888) | binding | 98
RET (Homo sapiens, UniProt P07949) | binding | 89
ZAP70 (Homo sapiens, UniProt P43403) | binding | 100
CDK11B (Homo sapiens, UniProt P21127) | cell-free assay | 100
SIK3 (Homo sapiens, UniProt Q9Y2K2) | binding | 85
MAP2K1 (Homo sapiens, UniProt Q02750) | binding | 100
